Experimental data gathered from unrelated publications.
Each line is one published result; not all experiments were run side by side. ± marks the error that the study gave.

SMILES | species | sample | route | dose | time | notes | tissue uptake [%ID/g]
N=C(N)NCCC[C@@H]1NC(=O)[C@H](CCCCNC(=O)CCOCCOCCOCCOCCNC(=O)CN2CCN(CC(=O)O)CCN(CC(=O)O)CCN(CC(=O)O)CC2)NC(=O)[C@@H](Cc2ccccc2)NC(=O)[C@H](CC(=O)O)NC(=O)CNC1=O [indium-111 labelled] | female athymic nude mice | brain | intravenous | 3 µCi | 4 h | U-87 MG glioma xenograft | 0.04 ± 0.01
N=C(N)NCCC[C@@H]1NC(=O)[C@H](CCCCNC(=O)CCOCCOCCOCCOCCNC(=O)CC[C@H](NC(=O)[C@H](CCCCNC(=O)c2ccc(NN)nc2)NC(=O)c2ccc(NN)nc2)C(=O)NCCOCCOCCOCCOCCC(=O)NCCCC[C@@H]2NC(=O)[C@@H](Cc3ccccc3)NC(=O)[C@H](CC(=O)O)NC(=O)CNC(=O)[C@H](CCCNC(=N)N)NC2=O)NC(=O)[C@@H](Cc2ccccc2)NC(=O)[C@H](CC(=O)O)NC(=O)CNC1=O [technetium-99m labelled] | female athymic nude mice | brain | intravenous | 0.1 MBq | 1 h | U-87 MG glioma xenograft | 0.14 ± 0.03
CSCC[C@H](NC(=O)[C@H](CC(C)C)NC(=O)[C@H](Cc1c[nH]cn1)NC(=O)CNC(=O)[C@@H](NC(=O)[C@H](C)NC(=O)[C@H](Cc1c[nH]c2ccccc12)NC(=O)[C@H](CCC(N)=O)NC(=O)CNC(=O)[C@H](CO)NC(=O)CNC(=O)CCCCCCCNC(=O)CCC(=O)Nc1ccc(CNC23CNCCNCC(N)(CNCCNC2)CNCCNC3)cc1)C(C)C)C(N)=O [copper-64 labelled] | female SCID mice, PC-3 xenograft | kidney | intravenous | 0.6 MBq | 24 h | – | 4.73 ± 0.198
N=C(N)NCCC[C@@H]1NC(=O)[C@H](CCCCNC(=O)CC[C@H](NC(=O)[C@H](CCCCNC(=O)c2ccc(NN)nc2)NC(=O)c2ccc(NN)nc2)C(=O)NCCCC[C@@H]2NC(=O)[C@@H](Cc3ccccc3)NC(=O)[C@H](CC(=O)O)NC(=O)CNC(=O)[C@H](CCCNC(=N)N)NC2=O)NC(=O)[C@@H](Cc2ccccc2)NC(=O)[C@H](CC(=O)O)NC(=O)CNC1=O [technetium-99m labelled] | female athymic nude mice | eyes | intravenous | 0.1 MBq | 1 h | U-87 MG glioma xenograft | 0.98 ± 0.09
CC(C)C[C@H](NC(=O)[C@H](Cc1ccc(O)cc1)NC(=O)[C@@H](CCCNC(=N)N)NC(=O)[C@@H](CO)NC(=O)[C@H](Cc1ccccc1)NC(=O)[C@H](CC1CCCCC1)NC(=O)[C@H](CC(=O)O)NC(=O)CCC(C(=O)O)N1CCCN2CCN(CCCN(CC(=O)O)CC2)CC1)C(=O)N[C@@H](Cc1c[nH]c2ccccc12)C(=O)N[C@@H](CO)C(=O)O (stereo partly drawn) [copper-64 labelled] | female NMRI nude mice | intestine | – | – | 22 h p.i. | – | 1.3 ± 0.1
N=C(N)NCCC[C@@H]1NC(=O)[C@H](CCCCNC(=O)CC[C@H](NC(=O)CCOCCOCCOCCOCCNC(=O)CN2CCN(CC(=O)O)CCN(CC(=O)O)CCN(CC(=O)O)CC2)C(=O)NCCCC[C@@H]2NC(=O)[C@@H](Cc3ccccc3)NC(=O)[C@H](CC(=O)O)NC(=O)CNC(=O)[C@H](CCCNC(=N)N)NC2=O)NC(=O)[C@@H](Cc2ccccc2)NC(=O)[C@H](CC(=O)O)NC(=O)CNC1=O [indium-111 labelled] | female athymic nude mice | muscle | intravenous | 3 µCi | 72 h | U-87 MG glioma xenograft | 0.24 ± 0.1
N=C(N)NCCC[C@@H]1NC(=O)[C@H](CCCCNC(=O)CCOCCOCCOCCOCCNC(=O)CC[C@H](NC(=O)CCOCCOCCOCCOCCNC(=O)[C@H](CCCCNC(=O)c2ccc(NN)nc2)NC(=O)c2ccc(NN)nc2)C(=O)NCCOCCOCCOCCOCCC(=O)NCCCC[C@@H]2NC(=O)[C@@H](Cc3ccccc3)NC(=O)[C@H](CC(=O)O)NC(=O)CNC(=O)[C@H](CCCNC(=N)N)NC2=O)NC(=O)[C@@H](Cc2ccccc2)NC(=O)[C@H](CC(=O)O)NC(=O)CNC1=O [technetium-99m labelled] | female athymic nude mice | brain | intravenous | 0.1 MBq | 1 h | U-87 MG glioma xenograft | 0.14 ± 0.02
CSCC[C@H](NC(=O)[C@H](CC(C)C)NC(=O)[C@H](Cc1c[nH]cn1)NC(=O)CNC(=O)[C@@H](NC(=O)[C@H](C)NC(=O)[C@H](Cc1c[nH]c2ccccc12)NC(=O)[C@H](CCC(N)=O)NC(=O)CCCCCCCNC(=O)CCC(=O)Nc1ccc(CNC23CNCCNCC(N)(CNCCNC2)CNCCNC3)cc1)C(C)C)C(N)=O [copper-64 labelled] | female SCID mice, PC-3 xenograft | spleen | intravenous | 0.6 MBq | 24 h | – | 0.97 ± 0.184
N=C(N)NCCC[C@@H]1NC(=O)[C@H](CCCCNC(=O)CC[C@H](NC(=O)CCOCCOCCOCCOCCNC(=O)CC[C@H](NC(=O)CN2CCN(CC(=O)O)CCN(CC(=O)O)CCN(CC(=O)O)CC2)C(=O)NCCOCCOCCOCCOCCC(=O)N[C@@H](CCC(=O)NCCCC[C@@H]2NC(=O)[C@@H](Cc3ccccc3)NC(=O)[C@H](CC(=O)O)NC(=O)CNC(=O)[C@H](CCCNC(=N)N)NC2=O)C(=O)NCCCC[C@@H]2NC(=O)[C@@H](Cc3ccccc3)NC(=O)[C@H](CC(=O)O)NC(=O)CNC(=O)[C@H](CCCNC(=N)N)NC2=O)C(=O)NCCCC[C@@H]2NC(=O)[C@@H](Cc3ccccc3)NC(=O)[C@H](CC(=O)O)NC(=O)CNC(=O)[C@H](CCCNC(=N)N)NC2=O)NC(=O)[C@@H](Cc2ccccc2)NC(=O)[C@H](CC(=O)O)NC(=O)CNC1=O [indium-111 labelled] | female athymic nude mice | brain | intravenous | 3 µCi | 4 h | U-87 MG glioma xenograft | 0.07 ± 0.03

Excerpt of the above:
SMILES | species | sample | route | dose | time | notes | tissue uptake [%ID/g]
N=C(N)NCCC[C@@H]1NC(=O)[C@H](CCCCNC(=O)CC[C@H](NC(=O)CCOCCOCCOCCOCCNC(=O)CC[C@H](NC(=O)CN2CCN(CC(=O)O)CCN(CC(=O)O)CCN(CC(=O)O)CC2)C(=O)NCCOCCOCCOCCOCCC(=O)N[C@@H](CCC(=O)NCCCC[C@@H]2NC(=O)[C@@H](Cc3ccccc3)NC(=O)[C@H](CC(=O)O)NC(=O)CNC(=O)[C@H](CCCNC(=N)N)NC2=O)C(=O)NCCCC[C@@H]2NC(=O)[C@@H](Cc3ccccc3)NC(=O)[C@H](CC(=O)O)NC(=O)CNC(=O)[C@H](CCCNC(=N)N)NC2=O)C(=O)NCCCC[C@@H]2NC(=O)[C@@H](Cc3ccccc3)NC(=O)[C@H](CC(=O)O)NC(=O)CNC(=O)[C@H](CCCNC(=N)N)NC2=O)NC(=O)[C@@H](Cc2ccccc2)NC(=O)[C@H](CC(=O)O)NC(=O)CNC1=O [indium-111 labelled] | female athymic nude mice | brain | intravenous | 3 µCi | 4 h | U-87 MG glioma xenograft | 0.07 ± 0.03
